Experimental data gathered from unrelated publications.
Protocols differ between the studies behind these lines.

CC[C@@H](C)[C@@H](N)C(=O)N[C@@H](CC(C)C)C(=O)N[C@@H](CCCNC(=N)N)C(=O)N[C@@H](Cc1c[nH]c2ccccc12)C(=O)N[C@@H](CO)C(=O)N[C@@H](CCCNC(=N)N)C(=O)N[C@@H](CCCCN)C(N)=O
stability (human plasma; time remaining stable): > 8 h

CN(CCC#N)C1CCN(C(=O)Cn2cc(NC(=O)c3cnn4cccnc34)c(-c3cc(Cl)ccc3OC(F)F)n2)CC1
stability (human plasma; 5 freeze-thaw cycles): stable

Cc1ccc(CNC(=O)c2cc(/C=C/C(=O)O)cc(-c3ccc4ncnn4c3)c2)cc1
stability (simulated intestinal fluid; 2 h): stable

CCC[C@H](N[C@@H](C)C(=O)N1[C@H](C(=O)O)C[C@@H]2CCCC[C@@H]21)C(=O)O
stability (human plasma; 16.0 ng/mL, 30 h, 8 °C, autosampler, high QC): 94.1%

O=C(NCCc1c[nH]c2ccccc12)C(=O)c1c[nH]c2ccc(F)cc12
stability (up to 48 h, pH 7.4): stable

CNC(=O)c1ccc(-c2nn3c(Cc4ccc5ncccc5c4)cnc3[nH]c2=O)cc1F
stability (human plasma; ambient): ≥ 24.7 h

C=C(NC(=O)c1csc(-c2nc3c(cc2O)-c2nc(cs2)C(=O)N[C@@H]([C@@H](C)O)C(=O)N/C(=C\C)c2nc(cs2)C(=O)N[C@H]2C[C@H](O)C(=O)OCc4cccc5[nH]c(c(C)c45)C(=O)SC[C@H](NC(=O)c4csc2n4)c2nc-3cs2)n1)C(N)=O
stability (HPLC; 24 h, pH 2.0–7.0, 25 °C): stable

O=C(N/N=C/c1ccccc1O)c1ccncc1
stability (rat plasma; 3 µM, 12 h, 5 °C, post-preparative): 91.8%

COc1cc2c(cc1OC)[C@@H]1Cc3ccc(OC)c(OC)c3CN1CC2
stability (mouse liver and kidney samples; freeze-thaw, autosampler, storage conditions): stable

O=C(NCCN1CCCC1)c1cc(-c2ccc(CN3CCOCC3)cc2)nc2ccc(F)cc12
stability (simulated gastric fluid): > 4 h

For quick reference, copied from above:
O=C(NCCc1c[nH]c2ccccc12)C(=O)c1c[nH]c2ccc(F)cc12
stability (up to 48 h, pH 7.4): stable

CN(CCC#N)C1CCN(C(=O)Cn2cc(NC(=O)c3cnn4cccnc34)c(-c3cc(Cl)ccc3OC(F)F)n2)CC1
stability (human plasma; 5 freeze-thaw cycles): stable
